{"data": "Experimental data of several laboratories", "note": "A part holds a random share of what one study measured."}
{"data": "Block 1", "target": "Ras GTPase-activating protein-binding protein 1, full length (G3BP1, Homo sapiens, UniProt Q13283)", "method": "RNA Bind-n-Seq", "molecule type": "RNA", "medium": "in vitro", "concentration": "200 nM", "notes": "whole 134-nt RNA, ends assumed", "together with": "150 mM KCl", "relative to": "input library", "direction": "higher = stronger binding", "UniProt Q13283, sequence (whole entry, looked up)": "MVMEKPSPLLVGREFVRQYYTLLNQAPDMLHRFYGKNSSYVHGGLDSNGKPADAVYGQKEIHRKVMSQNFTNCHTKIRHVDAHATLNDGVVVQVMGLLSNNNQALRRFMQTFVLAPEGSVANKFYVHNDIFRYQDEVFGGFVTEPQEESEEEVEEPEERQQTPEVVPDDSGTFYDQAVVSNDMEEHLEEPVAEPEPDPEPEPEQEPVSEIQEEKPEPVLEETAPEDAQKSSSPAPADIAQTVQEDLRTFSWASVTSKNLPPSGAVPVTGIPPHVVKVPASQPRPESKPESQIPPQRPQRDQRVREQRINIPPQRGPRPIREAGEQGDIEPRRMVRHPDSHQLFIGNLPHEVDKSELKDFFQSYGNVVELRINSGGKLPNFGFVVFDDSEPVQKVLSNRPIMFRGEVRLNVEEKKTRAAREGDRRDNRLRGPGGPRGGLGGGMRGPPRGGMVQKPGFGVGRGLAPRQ"}
{"Strand": "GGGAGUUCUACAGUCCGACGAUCCUCAAGUCCUGUGCUACACAUCGUAUGUACCGAAUCGGCCCGGCCCGGCCCGGAAAGUAUUAUGUUACGCCGUUCGGAUCUGCACUUCCAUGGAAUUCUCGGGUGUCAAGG", "log2 enrichment": -0.217}
{"Strand": "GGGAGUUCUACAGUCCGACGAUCAAGUCCUGUGCUACACAUCGUAUGUACCGAAUCGGAAAAGGGGAAAAGGGAAAAGGGAAAGUAUUAUGUUACGCCGUUCGGAUCUGCACUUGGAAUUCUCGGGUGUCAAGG", "log2 enrichment": -0.386}
{"Strand": "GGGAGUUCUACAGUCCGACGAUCCCUCAAGUCCUGUGCUACACAUCGUAUGUACCGAAUCGGGGCGGGGCGGCGGGAAAGUAUUAUGUUACGCCGUUCGGAUCUGCACUUCCAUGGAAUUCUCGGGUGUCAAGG", "log2 enrichment": 0.637}
{"Strand": "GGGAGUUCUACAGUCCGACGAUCUCAAGUCCUGUGCUACACAUCGUAUGUACCGAAUCGGGUUUGGGUUUGGUUUGGGAAAGUAUUAUGUUACGCCGUUCGGAUCUGCACUUCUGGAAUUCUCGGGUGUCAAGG", "log2 enrichment": -0.512}
{"Strand": "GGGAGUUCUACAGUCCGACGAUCGUCCUGUGCUACACAUCGUAUGUACCGAAUCGGGAAAAAGGGGAAAAAGGGAAAAAGGAAAGUAUUAUGUUACGCCGUUCGGAUCUGCACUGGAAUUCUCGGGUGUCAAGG", "log2 enrichment": -0.56}
{"Strand": "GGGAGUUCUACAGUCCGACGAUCUCCUGUGCUACACAUCGUAUGUACCGAAUCAAAUUUAAACCCCCCCAAAUUUUUUUAAAAAAGUAUUAUGUUACGCCGUUCGGAUCUGCAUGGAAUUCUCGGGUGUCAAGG", "log2 enrichment": 0.41}
{"Strand": "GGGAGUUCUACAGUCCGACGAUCAGUCCUGUGCUACACAUCGUAUGUACCGAAUCGGGGUUUGGGGAAAAAGGGGUGGGGAAAGUAUUAUGUUACGCCGUUCGGAUCUGCACUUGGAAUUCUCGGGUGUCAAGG", "log2 enrichment": 0.614}
{"Strand": "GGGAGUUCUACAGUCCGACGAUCGUCCUGUGCUACACAUCGUAUGUACCGAAUCGGUUUUUUUGGAAAAAAAGGAAAAAGGAAAGUAUUAUGUUACGCCGUUCGGAUCUGCACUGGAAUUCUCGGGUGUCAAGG", "log2 enrichment": -1.18}
{"Strand": "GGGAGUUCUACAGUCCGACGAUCUACUGCUCCUCAGCAGGAAGCGGAUGCUGAGGUGAACACAGAAACACUAAAUAAGUCCUCCCAGGGGAGCUCCUCGAGCACACAAUCAGCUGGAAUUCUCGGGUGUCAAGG", "log2 enrichment": 0.683}
{"Strand": "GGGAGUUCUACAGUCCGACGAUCUGUGCUACACAUCGUAUGUACCGAAUCGGGGUUUUUUUGGGGAAAAAAAGGGGUUUUUGGGGAAAGUAUUAUGUUACGCCGUUCGGAUCUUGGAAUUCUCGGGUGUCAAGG", "log2 enrichment": -0.428}
{"data": "Block 2", "target": "RNA binding protein fox-1 homolog 2, RRM domain, GST-SBP tag (RBFOX2, Homo sapiens, UniProt O43251-10, residues 100-194)", "method": "RNA Bind-n-Seq", "molecule type": "RNA", "medium": "in vitro", "concentration": "365 nM", "notes": "natural RNA segment, single round, ends assumed", "relative to": "no-protein control", "direction": "higher = stronger binding", "Residues (chain)": "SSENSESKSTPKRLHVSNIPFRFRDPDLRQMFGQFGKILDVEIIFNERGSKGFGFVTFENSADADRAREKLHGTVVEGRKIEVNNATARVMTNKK"}
{"Strand": "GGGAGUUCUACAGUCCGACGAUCCUCAGUGUGGUCCUGAGAACAGAAGCAUCUGCAUCACCUGGGAAUGUAUUAGAAAUGCAAGUUCCCAGCCCCAUCCCAGACCUACUGAAUCAGAAACUCUGGGGGCGAGGUGGAAUUCUCGGGUGCCAA", "RBNS enrichment (R)": 0.504}
{"Strand": "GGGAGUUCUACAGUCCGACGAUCCCUAGUGUGAUGAAGACCUUGCCCUCUUCAUUUCCCUCAACUCCCUACUCCUUUUAUGUAUGGAUGGGGUCUAACCAAGUGCACCCACUCCCCAAUAAAUCGACUCUUCCUGGAAUUCUCGGGUGCCAA", "RBNS enrichment (R)": 0.41}
{"Strand": "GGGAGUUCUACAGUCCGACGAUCAGAAAUACUGCUCUGAAUAUUUUGUAAUAAAGGUCUUUGCACAUGUGACCACAUACGUGUUAGGAGGCUGCAUGCUCUGGAAGCCUGGACUCUAAGCUGGAGCUCUUGGAUGGAAUUCUCGGGUGCCAA", "RBNS enrichment (R)": 5.72}
{"Strand": "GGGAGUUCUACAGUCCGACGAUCGAAGGACUGUGGCCUCUUCUGAGGGGCAGUGGACCUGGCAGGAUGGGCCACCGCUGACUGUGCUCCCCACUACCCCUGAGGAAGAUGGGGGCAAGAAGACCAUGUUCCCUUGGAAUUCUCGGGUGCCAA", "RBNS enrichment (R)": 0.232}
{"Strand": "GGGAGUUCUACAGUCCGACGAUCGAGCUUCAUGUAGGUUUAAAAGUGUAUUCUGAGCCUGUAGAUGAUUAAUCAGGUUUUUAUUCAAUCAUAUAAAUGUAUUCCUUUGUAAUCAUUUUUGUUUAACUGAGGAUUGGAAUUCUCGGGUGCCAA", "RBNS enrichment (R)": 0.708}
{"Strand": "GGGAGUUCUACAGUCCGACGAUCUUGUAUUUUAAAAUGAUGUAGUAUUCAACUUGUGAAGGGAUUUGUUUUGUCAAAAAAAAAAAAAAAUUAAAACUCAAUGUGUAUCAGCCCACAGAAGGGCAGGGGUCUGCUGGAAUUCUCGGGUGCCAA", "RBNS enrichment (R)": 1.27}
{"Strand": "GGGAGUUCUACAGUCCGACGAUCCCAGACACAGGCCGUGGGACCCAGGCUCCCAGCCUAAGGGAGACAGGCCUUUCCCUGCCGGCCCCCCAAGGAUGGGGUUCUUGUCCACGGGGCUCACUCUGGCCCCCUAUUGGAAUUCUCGGGUGCCAA", "RBNS enrichment (R)": 0.277}
{"Strand": "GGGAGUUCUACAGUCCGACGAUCCUCGAGUUACACAUAUGCAUAUGUCACACUGUCACUCAGUGUGUGGAUAUGCCUAUGUCACACUGUCACUCAGUGUGUGGAACUUUCUCUUUAAAGGUGUAACAUCUUAAUGGAAUUCUCGGGUGCCAA", "RBNS enrichment (R)": 0.346}
{"Strand": "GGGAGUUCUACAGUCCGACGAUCUUCUAGUUACAGAAGCCUUGCUCUGCUGUCAACAAUUGGGAAAUGCUCAUUUUUUCAUGUUUUGUGAAUACUCUGGUCUUGCUGUAAGCUAAUGUCAUGGCUGUGGGAUAUGGAAUUCUCGGGUGCCAA", "RBNS enrichment (R)": 0.55}
{"Strand": "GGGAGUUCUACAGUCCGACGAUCUCUGGGGAAGGCCUUGCCUCUAGGAUGGGCAAGGUUGACUAGGGAUAGUCCCAAAGCAUGACCACAAAGUAGAGAGCACGUGGUUAGAAACCACUUCAUCAGAAUGUGUGUGGAAUUCUCGGGUGCCAA", "RBNS enrichment (R)": 3.23}
{"Strand": "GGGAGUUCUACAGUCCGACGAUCAUGGCUGCUGUAUAUUUACUAUAUGGAGUUCUGAGUUAAAUACCAUCCUUAAUACUGGGAACAGAAUACAACCCAUAUAAAUCAGAUGCAGGUGGUAGUCACAUCACCAGUGGAAUUCUCGGGUGCCAA", "RBNS enrichment (R)": 0.42}
{"Strand": "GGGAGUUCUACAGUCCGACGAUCUCACUGCUAAGGACCGGAAGGACCCCUGCAUUGACACUCACCAGUACCGAGAAGGUCUAAGUAAAACAACGCAAGAUCAGCUCUUUCAGACUCUUAUCCAGAGGGCUCAGUGGAAUUCUCGGGUGCCAA", "RBNS enrichment (R)": 0.297}
{"data": "Block 3", "target": "Histone acetyltransferase KAT6A, winged helix 2, GST fusion (KAT6A, Homo sapiens, UniProt Q92794, residues 85-181)", "method": "protein binding microarray", "molecule type": "double-stranded DNA, one strand shown", "medium": "in vitro", "concentration": "not given", "notes": "8-mer, flanks averaged, mean of 2 arrays, mostly near background", "relative to": "not given", "direction": "higher = stronger binding", "Construct (chain)": "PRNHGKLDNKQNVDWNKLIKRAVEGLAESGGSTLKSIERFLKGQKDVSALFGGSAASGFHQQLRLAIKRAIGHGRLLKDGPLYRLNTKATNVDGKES"}
{"Strand": "ATCCGATA", "E-score": -0.133}
{"Strand": "GCAAGATA", "E-score": -0.069}
{"Strand": "CCTGCCAG", "E-score": 0.147}
{"Strand": "CGGCGTTA", "E-score": 0.00434}
{"Strand": "CCTTATAA", "E-score": 0.0295}
{"Strand": "CCTAGAAA", "E-score": -0.158}
{"Strand": "GTCAACAA", "E-score": -0.1}
{"Strand": "GAACAAGA", "E-score": -0.112}
{"Strand": "TGCTAAAA", "E-score": 0.148}
{"Strand": "CTAAGTCC", "E-score": -0.146}
{"Strand": "ATTGCAAT", "E-score": -0.124}
{"Strand": "TACAGGGA", "E-score": -0.0728}
{"Strand": "CCAAGCCA", "E-score": -0.0952}
{"Strand": "GGTAGGTA", "E-score": -0.108}
{"Strand": "CCTACGAG", "E-score": -0.0201}
{"Strand": "ACCAATTA", "E-score": 0.0193}
{"Strand": "CCTGGCGA", "E-score": 0.134}
{"Strand": "AGATCGTA", "E-score": -0.175}
{"Strand": "GACGGGAA", "E-score": 0.0256}
{"Strand": "CGTTCTAG", "E-score": -0.0691}
{"Strand": "ACTTGTGC", "E-score": -0.142}
{"Strand": "GCGATATA", "E-score": 0.166}
{"Strand": "GCGCACAA", "E-score": 0.156}
{"Strand": "ACCGTCTA", "E-score": -0.138}
{"Strand": "TACTGTCA", "E-score": -0.209}
{"data": "Block 4", "target": "Sal-like protein 4, full length isoform A (SALL4, Homo sapiens, UniProt Q9UJQ4, residues 1-1053)", "method": "universal PBM", "molecule type": "double-stranded DNA, one strand shown", "medium": "in vitro", "concentration": "600 nM", "notes": "8-mer, flanks averaged, mean of replicates", "direction": "higher = stronger binding", "UniProt Q9UJQ4, sequence (whole entry, looked up)": "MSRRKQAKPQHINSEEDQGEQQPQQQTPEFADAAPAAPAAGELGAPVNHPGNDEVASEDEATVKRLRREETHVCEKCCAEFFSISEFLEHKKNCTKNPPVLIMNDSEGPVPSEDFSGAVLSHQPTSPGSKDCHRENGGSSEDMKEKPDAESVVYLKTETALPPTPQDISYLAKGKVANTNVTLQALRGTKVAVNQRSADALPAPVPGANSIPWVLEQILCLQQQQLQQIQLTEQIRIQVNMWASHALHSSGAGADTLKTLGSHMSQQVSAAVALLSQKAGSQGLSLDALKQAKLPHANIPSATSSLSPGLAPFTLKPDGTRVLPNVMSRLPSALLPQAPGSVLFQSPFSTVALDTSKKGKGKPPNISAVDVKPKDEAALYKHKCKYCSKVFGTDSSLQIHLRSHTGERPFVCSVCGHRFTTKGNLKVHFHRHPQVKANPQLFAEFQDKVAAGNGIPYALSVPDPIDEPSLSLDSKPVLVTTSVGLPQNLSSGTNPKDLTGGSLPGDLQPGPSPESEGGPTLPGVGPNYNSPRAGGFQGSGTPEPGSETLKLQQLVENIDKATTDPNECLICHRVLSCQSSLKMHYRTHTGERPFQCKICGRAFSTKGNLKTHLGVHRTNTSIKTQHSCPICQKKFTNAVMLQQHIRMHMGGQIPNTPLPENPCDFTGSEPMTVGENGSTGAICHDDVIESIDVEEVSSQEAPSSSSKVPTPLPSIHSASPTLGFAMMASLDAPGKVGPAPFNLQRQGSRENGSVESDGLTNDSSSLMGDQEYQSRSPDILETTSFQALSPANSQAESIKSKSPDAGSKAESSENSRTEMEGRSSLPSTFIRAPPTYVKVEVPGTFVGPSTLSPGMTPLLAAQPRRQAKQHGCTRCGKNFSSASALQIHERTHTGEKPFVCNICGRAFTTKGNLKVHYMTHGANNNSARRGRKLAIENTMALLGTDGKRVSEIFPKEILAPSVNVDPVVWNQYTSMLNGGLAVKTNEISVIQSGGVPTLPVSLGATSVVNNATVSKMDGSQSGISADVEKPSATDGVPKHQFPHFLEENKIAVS"}
{"Strand": "AAAGGGCT", "E-score": -0.137}
{"Strand": "AACACAGC", "E-score": 0.1}
{"Strand": "AGCACGGA", "E-score": -0.209}
{"Strand": "TGACGTCA", "E-score": 0.138}
{"Strand": "GAGCAGCA", "E-score": -0.0979}
{"Strand": "ATTTGGAA", "E-score": 0.221}
{"Strand": "AAACACTT", "E-score": 0.11}
{"Strand": "ATTGGTCG", "E-score": 0.00843}
{"Strand": "TATCTGAA", "E-score": 0.188}
{"Strand": "CGCATGGC", "E-score": -0.159}
{"Strand": "GGCCCCAA", "E-score": -0.214}
{"Strand": "ATCCATGA", "E-score": 0.0349}
{"Strand": "CGATACAG", "E-score": -0.0723}
{"Strand": "AATTATCT", "E-score": 0.324}
{"Strand": "CACCAGAA", "E-score": -0.0301}
{"Strand": "CGATGACG", "E-score": -0.19}
{"Strand": "AGTCGCGC", "E-score": -0.263}
{"Strand": "GGCCATGA", "E-score": -0.224}
{"Strand": "ACCGCCGA", "E-score": -0.253}
{"Strand": "ATCGAGAG", "E-score": -0.00195}
{"Strand": "CCCAAAAG", "E-score": -0.141}
{"Strand": "GCCTCTAC", "E-score": -0.234}
{"Strand": "CATGAGGC", "E-score": -0.262}
{"Strand": "GATGATAA", "E-score": 0.215}
{"Strand": "CCACCCAA", "E-score": -0.114}
{"note": "Excerpt of the above (block 3):"}
{"Strand": "GGTAGGTA", "E-score": -0.108}
{"Strand": "CCTACGAG", "E-score": -0.0201}
{"Strand": "ACCAATTA", "E-score": 0.0193}
{"Strand": "CCTGGCGA", "E-score": 0.134}
{"Strand": "AGATCGTA", "E-score": -0.175}
